Results pooled from the literature.
Each line is one published result; not all experiments were run side by side. Numbers after ± are the reported error.

CCCC[C@H](NC(=O)CCCCCCCNC(=O)c1ccc(NN)nc1)C(=O)N[C@H]1CC(=O)NCCCC[C@@H](C(N)=O)NC(=O)[C@H](Cc2c[nH]c3ccccc23)NC(=O)[C@H](CCCNC(=N)N)NC(=O)[C@@H](Cc2ccccc2)NC(=O)[C@H](Cc2c[nH]cn2)NC1=O [technetium-99m labelled]  tissue uptake (C57 mouse, B16/F1 melanoma, skin; 2 h, added: L-lysine 12 mg co-injected): 0.54 ± 0.1 %ID/g
N=C(N)NCCC[C@@H]1NC(=O)[C@H](CCCCNC(=O)CC[C@H](NC(=O)CCOCCOCCOCCOCCNC(=O)CC[C@H](NC(=O)CN2CCN(CC(=O)O)CCN(CC(=O)O)CCN(CC(=O)O)CC2)C(=O)NCCOCCOCCOCCOCCC(=O)N[C@@H](CCC(=O)NCCCC[C@@H]2NC(=O)[C@@H](Cc3ccccc3)NC(=O)[C@H](CC(=O)O)NC(=O)CNC(=O)[C@H](CCCNC(=N)N)NC2=O)C(=O)NCCCC[C@@H]2NC(=O)[C@@H](Cc3ccccc3)NC(=O)[C@H](CC(=O)O)NC(=O)CNC(=O)[C@H](CCCNC(=N)N)NC2=O)C(=O)NCCCC[C@@H]2NC(=O)[C@@H](Cc3ccccc3)NC(=O)[C@H](CC(=O)O)NC(=O)CNC(=O)[C@H](CCCNC(=N)N)NC2=O)NC(=O)[C@@H](Cc2ccccc2)NC(=O)[C@H](CC(=O)O)NC(=O)CNC1=O [indium-111 labelled]  tissue uptake (female athymic nude mice, blood; intravenous, 3 µCi, 24 h, U-87 MG glioma xenograft): 0.03 %ID/g
Cc1cc(-c2ccc(NC(=O)[C@H](CCCCNC(=O)CCOCCOCCC(=O)N[C@H](Cc3ccccc3)C(=O)N[C@H]3CSSC[C@@H](C(=O)N[C@H](C(=O)O)[C@@H](C)O)NC(=O)[C@H]([C@@H](C)O)NC(=O)[C@H](CCCCN)NC(=O)[C@@H](Cc4c[nH]c5ccccc45)NC(=O)[C@H](Cc4ccc(O)cc4)NC3=O)NC(=O)CN3CCN(CC(=O)O)CCN(CC(=O)O)CCN(CC(=O)O)CC3)c(C)c2)ccc1N=Nc1ccc2c(S(=O)(=O)O)cc(S(=O)(=O)O)c(N)c2c1O [lutetium-177 labelled]  patients with toxicity (measured: subacute haematologic toxicity; patients with metastatic neuroendocrine tumours; dose not given, two cycles): 83%
CC[C@@]1(O)C(=O)OCc2c1cc1n(c2=O)Cc2cc3cc(OC(=O)CCCC(=O)NCC(=O)N[C@@H](Cc4ccccc4)C(=O)N[C@@H](Cc4ccccc4)C(=O)N[C@@H](Cc4ccc(O)cc4)C(=O)NCCS)ccc3nc2-1  nanofibre size (TEM and AFM; PBS; 100 µM, pH 7.4, added: alkaline phosphatase then GSH 400 µM): 4 to 9 nm
N=C(N)NCCC[C@@H]1NC(=O)[C@H](CCCCNC(=O)CCOCCOCCOCCOCCNC(=O)CN2CCN(CC(=O)O)CCN(CC(=O)O)CCN(CC(=O)O)CC2)NC(=O)[C@@H](Cc2ccccc2)NC(=O)[C@H](CC(=O)O)NC(=O)CNC1=O [indium-111 labelled]  tissue uptake (female athymic nude mice, blood; intravenous, 3 µCi, 4 h, U-87 MG glioma xenograft): 0.29 ± 0.02 %ID/g
CC(=O)N[C@H](C(=O)N[C@@H](CCCCNC(=O)CCC(=O)OC[C@@H]1O[C@H](n2ccc(N)nc2=O)CS1)C(=O)N[C@H](C(=O)N[C@@H](CCCCNC(=O)CCC(=O)OC[C@@H]1O[C@H](n2ccc(N)nc2=O)CS1)C(=O)N[C@H](C(=O)N[C@@H](CCCCNC(=O)CCC(=O)OC[C@@H]1O[C@H](n2ccc(N)nc2=O)CS1)C(=O)N[C@@H](CCC(=O)O)C(=O)N[C@@H](CCC(=O)O)C(=O)N[C@@H](CCC(=O)O)C(N)=O)C(C)C)C(C)C)C(C)C  blood cell counts (measured: white cells, neutrophils, lymphocytes, monocytes; mouse): no effect
CSCC[C@H](NC(=O)[C@H](CC(C)C)NC(=O)[C@H](Cc1c[nH]cn1)NC(=O)CNC(=O)[C@@H](NC(=O)[C@H](C)NC(=O)[C@H](Cc1c[nH]c2ccccc12)NC(=O)[C@H](CCC(N)=O)NC(=O)CCCCCNC(=O)CNC(=O)CNC(=O)CNC(=O)CSC(C)=O)C(C)C)C(N)=O [technetium-99m labelled]  tissue uptake (nude mouse, PC-3 xenograft, spleen; 90 min): 0.72 ± 0.31 %ID/g
CCCC[C@H](NC(=O)CNC(=O)CNC(=O)CNC(=O)c1ccc(NN)nc1)C(=O)N[C@H]1CC(=O)NCCCC[C@@H](C(N)=O)NC(=O)[C@H](Cc2c[nH]c3ccccc23)NC(=O)[C@H](CCCNC(=N)N)NC(=O)[C@@H](Cc2ccccc2)NC(=O)[C@H](Cc2c[nH]cn2)NC1=O [technetium-99m labelled]  uptake (C57 mouse, B16/F1 melanoma, brain; intravenous, 2 h): 0.05 ± 0.03 %ID/g
N=C(N)NCCC[C@@H]1NC(=O)[C@H](CCCCNC(=O)CNC(=O)CNC(=O)CNC(=O)CC[C@H](NC(=O)CCOCCOCCOCCOCCNC(=O)CC[C@H](NC(=O)CN2CCN(CC(=O)O)CCN(CC(=O)O)CCN(CC(=O)O)CC2)C(=O)NCCOCCOCCOCCOCCC(=O)N[C@@H](CCC(=O)NCC(=O)NCC(=O)NCC(=O)NCCCC[C@@H]2NC(=O)[C@@H](Cc3ccccc3)NC(=O)[C@H](CC(=O)O)NC(=O)CNC(=O)[C@H](CCCNC(=N)N)NC2=O)C(=O)NCC(=O)NCC(=O)NCC(=O)NCCCC[C@@H]2NC(=O)[C@@H](Cc3ccccc3)NC(=O)[C@H](CC(=O)O)NC(=O)CNC(=O)[C@H](CCCNC(=N)N)NC2=O)C(=O)NCC(=O)NCC(=O)NCC(=O)NCCCC[C@@H]2NC(=O)[C@@H](Cc3ccccc3)NC(=O)[C@H](CC(=O)O)NC(=O)CNC(=O)[C@H](CCCNC(=N)N)NC2=O)NC(=O)[C@@H](Cc2ccccc2)NC(=O)[C@H](CC(=O)O)NC(=O)CNC1=O [indium-111 labelled]  tissue uptake (female athymic nude mice, blood; intravenous, 3 µCi, 72 h, U-87 MG glioma xenograft): 0.03 ± 0.01 %ID/g
CCCC[C@H](NC(=O)CNC(=O)CNC(=O)c1ccc(NN)nc1)C(=O)N[C@H]1CC(=O)NCCCC[C@@H](C(N)=O)NC(=O)[C@H](Cc2c[nH]c3ccccc23)NC(=O)[C@H](CCCNC(=N)N)NC(=O)[C@@H](Cc2ccccc2)NC(=O)[C@H](Cc2c[nH]cn2)NC1=O [technetium-99m labelled]  tissue uptake ratio (C57 mouse, B16/F1 melanoma-bearing; intravenous, 4 h; reference: tumour over liver): 22.1

Repeated from above:
CCCC[C@H](NC(=O)CNC(=O)CNC(=O)CNC(=O)c1ccc(NN)nc1)C(=O)N[C@H]1CC(=O)NCCCC[C@@H](C(N)=O)NC(=O)[C@H](Cc2c[nH]c3ccccc23)NC(=O)[C@H](CCCNC(=N)N)NC(=O)[C@@H](Cc2ccccc2)NC(=O)[C@H](Cc2c[nH]cn2)NC1=O [technetium-99m labelled]  uptake (C57 mouse, B16/F1 melanoma, brain; intravenous, 2 h): 0.05 ± 0.03 %ID/g
